Results gathered from unrelated publications.
Every numbered part comes from another study and shows a few of its results, in no order. Positions count from the first letter of the parent shown.

Study 1
Target: ABI1, truncated, D143A, DHFR fusion (Arabidopsis thaliana)
Method: DHFR PCA, deep sequencing
Sample: yeast
Setting: methotrexate growth selection, single substitutions
With: (+)-ABA 58 µM
Baseline: wild-type fitted maximum
Reading: higher = stronger binding
Endpoint: relative binding score
Parent: PYL1, truncated, DHFR fusion (Arabidopsis thaliana); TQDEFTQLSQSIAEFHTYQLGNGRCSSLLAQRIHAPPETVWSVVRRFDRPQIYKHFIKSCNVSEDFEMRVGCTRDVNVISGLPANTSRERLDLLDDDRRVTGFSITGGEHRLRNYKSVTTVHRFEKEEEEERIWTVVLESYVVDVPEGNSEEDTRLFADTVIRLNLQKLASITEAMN; partner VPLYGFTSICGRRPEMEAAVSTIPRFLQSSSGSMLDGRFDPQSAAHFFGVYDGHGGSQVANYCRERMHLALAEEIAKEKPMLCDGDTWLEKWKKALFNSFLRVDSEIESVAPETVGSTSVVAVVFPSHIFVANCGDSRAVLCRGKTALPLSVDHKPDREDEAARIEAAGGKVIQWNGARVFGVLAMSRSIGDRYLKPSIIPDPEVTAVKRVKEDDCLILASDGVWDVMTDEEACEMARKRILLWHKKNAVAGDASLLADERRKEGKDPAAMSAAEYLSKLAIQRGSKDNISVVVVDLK
Variant = A84S; value = 37.5%
Variant = S27P; value = -2.71%
Variant = D153Y; value = 5.8%
Variant = T160K; value = 72.7%
Variant = I12P; value = -0.862%
Variant = Q51T; value = 49.3%
Variant = G71D; value = 26%
Variant = P36K; value = 84.8%
Variant = D75C; value = 84.7%
Variant = D95K; value = 17%
Variant = E147W; value = 70.1%
Variant = D144N; value = 63.5%
Variant = V70G; value = 38.2%
Variant = L166G; value = 3.79%
Variant = G148A; value = 60.2%
Variant = Y53V; value = 10.6%
Variant = L156G; value = 70.7%
Variant = Q31R; value = 83.4%
Variant = I12W; value = 34.1%
Variant = D75L; value = 87.2%
Variant = G71Y; value = 3.99%
Variant = C60M; value = 14.7%

Study 2
Target: Histone acetyltransferase KAT6A, winged helix 2, GST fusion (KAT6A, Homo sapiens, UniProt Q92794, residues 85-181)
Method: protein binding microarray
Form: double-stranded DNA, one strand shown
Sample: in vitro
Concentration: not given
Setting: 8-mer, flanks averaged, mean of 2 arrays, mostly near background
Baseline: not given
Reading: higher = stronger binding
Endpoint: E-score
Construct (chain): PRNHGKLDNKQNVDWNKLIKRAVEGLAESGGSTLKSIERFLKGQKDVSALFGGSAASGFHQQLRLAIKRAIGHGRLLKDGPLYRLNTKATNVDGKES
Strand = GGGCGCAC; value = 0.0367
Strand = GGAGGGAC; value = -0.00153
Strand = GTGAGACA; value = -0.122
Strand = GCTGGTCC; value = 0.139
Strand = GATTACGC; value = 0.0508
Strand = TATCGGCA; value = 0.0921
Strand = ATCCAGAA; value = -0.0156
Strand = TCTGACCA; value = 0.0624
Strand = CGAGTTCA; value = 0.128
Strand = CATTCGGG; value = 0.0862
Strand = GCAGACAC; value = 0.165
Strand = ATGGTTAG; value = -0.0897
Strand = AAATGAGG; value = -0.148
Strand = CTGTAGGA; value = -0.111
Strand = CCCGTAAC; value = -0.118
Strand = CGACTGCA; value = -0.0235
Strand = AATCGGCT; value = 0.108

Study 3
Target: Sal-like protein 4, full length isoform A (SALL4, Homo sapiens, UniProt Q9UJQ4, residues 1-1053)
Chain of UniProt Q9UJQ4 (whole entry, looked up): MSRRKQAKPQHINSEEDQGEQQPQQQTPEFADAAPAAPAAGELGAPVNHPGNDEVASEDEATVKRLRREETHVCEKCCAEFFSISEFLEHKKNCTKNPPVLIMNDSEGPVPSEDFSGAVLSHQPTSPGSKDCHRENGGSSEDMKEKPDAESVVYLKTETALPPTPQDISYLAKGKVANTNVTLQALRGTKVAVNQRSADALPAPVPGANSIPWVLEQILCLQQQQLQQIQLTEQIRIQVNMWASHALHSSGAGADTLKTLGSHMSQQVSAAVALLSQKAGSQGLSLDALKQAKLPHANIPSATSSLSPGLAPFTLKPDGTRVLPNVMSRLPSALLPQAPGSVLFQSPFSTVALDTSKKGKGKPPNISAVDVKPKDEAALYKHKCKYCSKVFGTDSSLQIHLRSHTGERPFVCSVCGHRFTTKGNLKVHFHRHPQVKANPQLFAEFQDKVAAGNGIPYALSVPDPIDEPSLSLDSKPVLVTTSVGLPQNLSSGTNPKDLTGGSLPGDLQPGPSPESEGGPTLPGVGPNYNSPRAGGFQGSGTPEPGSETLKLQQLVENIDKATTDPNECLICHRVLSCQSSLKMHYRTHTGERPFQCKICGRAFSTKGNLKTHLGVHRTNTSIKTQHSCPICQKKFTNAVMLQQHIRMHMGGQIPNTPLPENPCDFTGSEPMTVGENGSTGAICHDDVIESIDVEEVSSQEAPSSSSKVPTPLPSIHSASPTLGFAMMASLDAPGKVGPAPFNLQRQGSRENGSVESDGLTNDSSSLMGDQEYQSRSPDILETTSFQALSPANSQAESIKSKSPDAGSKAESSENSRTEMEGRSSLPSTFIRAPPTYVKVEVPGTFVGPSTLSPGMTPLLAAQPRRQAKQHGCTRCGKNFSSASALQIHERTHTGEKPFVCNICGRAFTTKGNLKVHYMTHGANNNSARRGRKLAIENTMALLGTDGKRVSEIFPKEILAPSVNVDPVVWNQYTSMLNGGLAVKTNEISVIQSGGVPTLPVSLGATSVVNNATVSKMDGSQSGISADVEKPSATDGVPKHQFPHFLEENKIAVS
Method: universal PBM
Form: double-stranded DNA, one strand shown
Sample: in vitro
Concentration: 600 nM
Setting: 8-mer, flanks averaged, mean of replicates
Reading: higher = stronger binding
Endpoint: E-score
Strand = CTCTAGCC; value = -0.135
Strand = AGATGATG; value = 0.151
Strand = AGAATTAC; value = 0.194
Strand = ATTTTGTA; value = 0.275
Strand = CATACCAG; value = -0.0541
Strand = ACAAAGAC; value = 0.16
Strand = ACGATTCG; value = -0.109
Strand = CCCTCAGA; value = -0.186
Strand = ATACGAAT; value = 0.281
Strand = ACCATGCG; value = -0.139
Strand = CATCCGAC; value = -0.128
Strand = AGAATGGA; value = 0.0897
Strand = TGATCACA; value = 0.0588
Strand = ACTGGTAA; value = 0.129
Strand = ATATGCGA; value = 0.238
Strand = CCGAGCTC; value = -0.243
Strand = CAAATGGG; value = -0.00322
Strand = AGGACACG; value = -0.245
Strand = CCTTCAGA; value = -0.048
Strand = CAACCAGC; value = -0.269
Strand = CTGAAGTA; value = 0.124
Strand = CGCCTTTC; value = -0.0981
Strand = CGAACATC; value = -0.0195
Strand = AATACACT; value = 0.323

Study 4
Target: Hepatocyte nuclear factor 3-alpha (Foxa1, Mus musculus, UniProt P35582, residues 1-468, full length assumed)
Method: EMSA with sequencing
Form: double-stranded DNA, one strand shown
Sample: in vitro
Concentration: 10 and 20 nM
Setting: whole designed probe, mean of two concentrations, ends assumed
Baseline: negative control set to 0
Reading: higher = stronger binding
Endpoint: normalised bound fraction
Shared flanks, not repeated: GTGAGCGGTGCCCATTGATGGGGAAC … TTTCACTGGGATCGTGGGGAC
Residues (chain): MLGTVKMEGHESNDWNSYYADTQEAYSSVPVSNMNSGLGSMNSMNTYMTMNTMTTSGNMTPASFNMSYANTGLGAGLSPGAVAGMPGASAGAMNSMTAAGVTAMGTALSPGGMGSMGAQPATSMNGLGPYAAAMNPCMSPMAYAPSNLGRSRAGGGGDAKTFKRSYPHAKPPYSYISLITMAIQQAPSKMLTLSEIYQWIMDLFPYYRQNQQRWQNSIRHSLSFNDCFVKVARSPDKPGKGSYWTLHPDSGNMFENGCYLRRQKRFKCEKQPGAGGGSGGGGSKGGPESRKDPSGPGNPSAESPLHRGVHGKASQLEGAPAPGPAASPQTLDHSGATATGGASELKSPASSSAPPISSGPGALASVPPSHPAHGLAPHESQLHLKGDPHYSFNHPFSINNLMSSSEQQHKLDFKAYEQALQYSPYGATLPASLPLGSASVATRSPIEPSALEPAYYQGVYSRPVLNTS
Strand = CTTTTAAATATTTCAAAAACTATAACTTATAGGATTGCCAATAAGTAGAAAACTTAGATACTACCTTTTCCCATCCTTTATTTTATTTCAGTGTAAACATGGCTTTTATTTAACTATTTATATTTTCTTTAATAAAATTTTTAAGAAATTGTACAGGTTTCATAACATTTTATTGTCATCCTGTGCTTAGATT; value = 0.177 ratio
Strand = CCAAAGTATCACAGGGAGAGATGGGCCTCTTGGGGCAGCAGCAGCAGCTGAAGCAGGCAGACTCTCAGCTGCTTCTAATATGCTAGGCTTTGTGTAAACAGGCTTTATGACACAAGTGGGCTGACTACAGTGCAATTGGAGTGTGGCATCAGAGTCTCTGTGAGGCTCTAGCTGGCTTCTTCCAGCCCTGGCC; value = 0.3 ratio
Strand = TCCTTTGCATCATATGTTTGCTACTAATATTTTTTCTTAAATTTATAAAAGACAATTTTAGCAATGGGAACAGTAGTTGGAATAGGTTATTTTCTGTTTACTTTGATACTTAAAGGCCATCAGAAGAATGGACTTTTTCCTTTAATTCCCTTCCTGCCTTCTTTTTTACATATAGTAAATTTCCAGAAGAAAA; value = 0.38 ratio
Strand = GAGAGTCTGTGAATAGGTGCCTACCTCCATCCCGCACTGGGGGCATGAGAGGAGCAGGAACCTTGCATTAGACACAAAGGGTACCCAAGCCAAAATAAACATCCATAAAGGGCCCCGCCCTGAGGTCCTTGGCATGCTACAGAATAACCTGTTCCAAGCCATGTGGGCAAGACTAAAGCGATACCCTCCCAAG; value = 0.232 ratio
Strand = GGTATAACTAAACAATCTAACAAACAAAAAGATACTAAAGATACCGTCTATAATTGGACCCAGGTCAGTGGTGCCTCCAGGCACCTGGCCAAAGTCATCTCAGGGGGTTTGGAAGCGGAAGATAATATCAACAATGGCTAACACATTCAACGCACAAAACAGAATCCTGTTAGAACAGGTGAGAAGTAGGGCT; value = 0.195 ratio
Strand = CTTGTTCTCATTGTGTGATGGAAAGCCTGTTGGGCTAAGAGTCTAGCAACCGGATTCTATCACTAAGTCTGTGCAAACCTGAATCTATTGCTTGTTTACATAATCTGTAAATGCAAGTGCTAATTACCAAGTGAATTCAGCTATAACACTCATTTCTACCACAATTTAGTAAGCCAACTCGACCCATCGCTCA; value = 0.42 ratio
Strand = CCCATGTTAAGAGGCCAGGCAGACAGACCTAGGGCTGGATCTGCAGATAAGTCATCTACACTGGACCCTTGGCTTTGCTTTTAATTGGTTCAATATTTGCACAGTGACATCACACCTGCGCCTTACCTACTCAATAACAAGCTTTCTCTCAGTCACCCAGAAGAAACTGCAAAGAAAAGCAAATTGTTTCAGG; value = 0.426 ratio
Strand = TTATTTTGATAACATCTCCTTTTCATTAGAACCTTCCTCTCTAGTCCCTCTATTTCAATCTTTAATGTTGTTCTTTGTGCTGTTTCATGCCTTTGTTTACATTCTTACACACACACACCCCATTCCTGGAATTTCCCTCCTAGTCGTCTCTGCCTGAAAAAAAACCCTACTAACCCTTTGAGGCCAGCTCAGA; value = 0.435 ratio

Excerpt of the above (study 3):
Strand = TGATCACA; value = 0.0588
Strand = ACTGGTAA; value = 0.129
Strand = ATATGCGA; value = 0.238
Strand = CCGAGCTC; value = -0.243
